Experimental data gathered from unrelated publications.
Lines come from different studies, so protocols differ. Numbers after ± are the reported error.
BRAP ZnF-UBD domain: BRCA1-associated protein, ZnF-UBD domain (BRAP, Homo sapiens, UniProt Q7Z569)
Sequence of UniProt Q7Z569 (whole entry, looked up): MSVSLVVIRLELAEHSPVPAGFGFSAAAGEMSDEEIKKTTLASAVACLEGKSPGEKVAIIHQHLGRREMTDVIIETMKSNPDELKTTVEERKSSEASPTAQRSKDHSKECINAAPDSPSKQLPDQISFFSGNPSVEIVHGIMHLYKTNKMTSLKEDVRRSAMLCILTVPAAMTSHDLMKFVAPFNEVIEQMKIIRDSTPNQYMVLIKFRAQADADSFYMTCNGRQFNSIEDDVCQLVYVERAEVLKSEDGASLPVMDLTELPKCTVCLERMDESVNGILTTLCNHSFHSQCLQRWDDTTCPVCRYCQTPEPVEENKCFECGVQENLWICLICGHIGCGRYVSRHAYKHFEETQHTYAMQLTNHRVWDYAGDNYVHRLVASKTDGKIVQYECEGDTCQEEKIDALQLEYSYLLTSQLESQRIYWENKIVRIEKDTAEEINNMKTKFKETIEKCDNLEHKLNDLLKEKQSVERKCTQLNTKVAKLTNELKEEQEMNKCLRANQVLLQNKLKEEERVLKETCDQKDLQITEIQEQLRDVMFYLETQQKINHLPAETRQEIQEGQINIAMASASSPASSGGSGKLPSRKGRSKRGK
ESR2: Estrogen receptor beta (ESR2, Homo sapiens, UniProt Q92731)
Sequence of UniProt Q92731 (whole entry, looked up): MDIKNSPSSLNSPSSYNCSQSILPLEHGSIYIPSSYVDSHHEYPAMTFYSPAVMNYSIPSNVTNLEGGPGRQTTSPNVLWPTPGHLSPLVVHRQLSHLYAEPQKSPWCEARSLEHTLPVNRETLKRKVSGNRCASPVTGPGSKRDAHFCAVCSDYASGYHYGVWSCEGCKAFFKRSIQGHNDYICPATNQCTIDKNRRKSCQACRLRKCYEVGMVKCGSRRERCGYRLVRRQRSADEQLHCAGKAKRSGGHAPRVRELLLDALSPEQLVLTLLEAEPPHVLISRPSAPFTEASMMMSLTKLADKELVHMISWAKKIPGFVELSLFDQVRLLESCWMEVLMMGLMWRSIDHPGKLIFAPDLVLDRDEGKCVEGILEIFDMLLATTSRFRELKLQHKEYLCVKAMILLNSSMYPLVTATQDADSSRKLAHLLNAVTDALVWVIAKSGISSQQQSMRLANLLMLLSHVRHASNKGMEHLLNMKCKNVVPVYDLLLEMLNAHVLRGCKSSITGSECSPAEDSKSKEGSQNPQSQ
VCP: Transitional endoplasmic reticulum ATPase (VCP, Homo sapiens, UniProt P55072)
Sequence of UniProt P55072 (whole entry, looked up): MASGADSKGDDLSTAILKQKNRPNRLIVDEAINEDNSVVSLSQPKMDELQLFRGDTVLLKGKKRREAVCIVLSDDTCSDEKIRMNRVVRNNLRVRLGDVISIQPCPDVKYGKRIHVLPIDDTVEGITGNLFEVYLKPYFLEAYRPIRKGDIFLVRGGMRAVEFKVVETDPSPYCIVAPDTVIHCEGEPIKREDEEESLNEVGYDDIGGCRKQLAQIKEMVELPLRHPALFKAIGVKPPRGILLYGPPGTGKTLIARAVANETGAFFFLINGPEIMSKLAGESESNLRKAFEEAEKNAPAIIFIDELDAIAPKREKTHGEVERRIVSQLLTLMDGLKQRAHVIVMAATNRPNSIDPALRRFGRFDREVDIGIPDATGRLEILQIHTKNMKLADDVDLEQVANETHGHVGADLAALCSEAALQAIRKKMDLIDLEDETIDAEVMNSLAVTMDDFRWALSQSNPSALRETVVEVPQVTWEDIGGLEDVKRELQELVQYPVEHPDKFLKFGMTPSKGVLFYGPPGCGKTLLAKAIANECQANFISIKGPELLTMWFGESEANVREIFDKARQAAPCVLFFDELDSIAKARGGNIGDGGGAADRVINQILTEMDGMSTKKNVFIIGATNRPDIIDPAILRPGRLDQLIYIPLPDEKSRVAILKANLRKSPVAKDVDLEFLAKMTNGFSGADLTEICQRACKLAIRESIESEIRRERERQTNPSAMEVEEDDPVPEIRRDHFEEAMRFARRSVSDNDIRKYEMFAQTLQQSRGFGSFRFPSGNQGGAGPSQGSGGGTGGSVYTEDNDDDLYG
GPR84: G-protein coupled receptor 84 (GPR84, Homo sapiens, UniProt Q9NQS5)
Sequence of UniProt Q9NQS5 (whole entry, looked up): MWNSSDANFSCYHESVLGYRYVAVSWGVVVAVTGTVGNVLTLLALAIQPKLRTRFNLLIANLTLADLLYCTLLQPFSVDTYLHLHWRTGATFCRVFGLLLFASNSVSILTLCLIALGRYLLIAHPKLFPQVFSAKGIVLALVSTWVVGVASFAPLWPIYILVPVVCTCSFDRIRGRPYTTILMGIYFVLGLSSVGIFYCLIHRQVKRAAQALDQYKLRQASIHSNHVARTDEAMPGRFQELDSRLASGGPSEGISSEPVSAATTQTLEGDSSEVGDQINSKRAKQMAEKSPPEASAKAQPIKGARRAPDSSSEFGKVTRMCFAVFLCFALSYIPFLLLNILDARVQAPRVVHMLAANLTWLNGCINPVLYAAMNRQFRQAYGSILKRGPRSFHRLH
Sequence of UniProt Q92633 (whole entry, unmodified, looked up): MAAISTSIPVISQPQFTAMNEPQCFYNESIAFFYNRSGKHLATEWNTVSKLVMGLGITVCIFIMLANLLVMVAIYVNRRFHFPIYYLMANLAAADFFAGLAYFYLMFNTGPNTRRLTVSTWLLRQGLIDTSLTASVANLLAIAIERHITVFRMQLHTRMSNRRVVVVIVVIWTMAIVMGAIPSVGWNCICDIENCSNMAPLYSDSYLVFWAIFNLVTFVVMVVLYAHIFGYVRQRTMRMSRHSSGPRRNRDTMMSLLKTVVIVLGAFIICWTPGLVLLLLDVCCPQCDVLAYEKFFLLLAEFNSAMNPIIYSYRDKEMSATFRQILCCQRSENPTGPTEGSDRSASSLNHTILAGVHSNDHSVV

The Kd of `O=C(O)Cc1cccc2cccnc12` is reported as > 1000 µM (BRAP ZnF-UBD domain).
With `Oc1ccc2c(c1)OC[C@H]1c3cc4c(cc3O[C@@H]21)OCO4` the EC50 was 1.58 µM (ESR2; array formation, agonist; GFP-ERβ PRL-HeLa; 1 h).
`Fc1ccccc1Nc1nc(NCc2ccccc2)c2ccccc2n1` has an IC50 of 0.85 ± 0.17 µM (VCP; enzyme activity, inhibitor).
The EC50 of `CCc1oc2c([C@H](CO)N(CC)CC)cccc2c1C` is reported as 0.041 µM (LPAR1 (Homo sapiens, UniProt Q92633, L297A); Gi protein dissociation, agonist, NanoBiT; HEK293T).
`COc1ccc(-c2cc(=O)c3c(O)cc(OC)cc3o2)cc1` gave an EC50 of 0.939 µM (ESR2; array formation, agonist; GFP-ERβ PRL-HeLa; 1 h).
The Kd of `O=C(O)CCOc1ccccc1` is reported as > 1000 µM (BRAP ZnF-UBD domain).
For `Oc1cc(NCCCCc2ccccc2)nc(O)n1`, the EC50 was 0.0245 µM (GPR84; cAMP).
`O=C(O)Cn1ccc2ccccc2c1=O` gave a Kd of > 1000 µM (BRAP ZnF-UBD domain).
`Oc1ccc([C@H]2COc3cc(O)ccc3C2)cc1` gave an EC50 of 0.0141 µM (ESR2; array formation, agonist; GFP-ERβ PRL-HeLa; 1 h).
The EC50 of `CCCCCCN(C)c1cc(=O)[nH]c(=O)[nH]1` is reported as 0.112 µM (GPR84; cAMP).
`COc1ccc(-c2cc(=O)c3c(O)cc(O[C@@H]4O[C@H](CO[C@@H]5O[C@@H](C)[C@H](O)[C@@H](O)[C@H]5O)[C@@H](O)[C@H](O)[C@H]4O)cc3o2)cc1` has an EC50 of 0.178 µM (ESR2; array formation, agonist; GFP-ERβ PRL-HeLa; 1 h).
`O=[N+]([O-])c1ccc(-c2nc(NCc3ccccc3)c3ccccc3n2)cc1` has an IC50 of 11 ± 6 µM (VCP; enzyme activity, inhibitor).
`CC(C)=CCc1cc2c(cc1O)O[C@H](c1ccc(O)cc1)CC2=O` has an EC50 of 0.146 µM (ESR2; array formation, agonist; GFP-ERβ PRL-HeLa; 1 h).
With `Cc1sc2ncn(CC(=O)O)c(=O)c2c1C` the Kd was 315 µM (BRAP ZnF-UBD domain).
`O=c1cc(NCCc2cccc(Cl)c2)[nH]c(=O)[nH]1` gave an EC50 of 0.126 µM (GPR84; cAMP).
`O=C(O)CCC(=O)Nc1ccccc1` has a Kd of > 1000 µM (BRAP ZnF-UBD domain).
The EC50 of `O=c1cc(NCCCCCCCO)[nH]c(=O)[nH]1` is reported as 2 µM (GPR84; cAMP).
For `O=C(O)CCn1c(=O)oc2ccccc21`, the Kd was 993 µM (BRAP ZnF-UBD domain).
With `O=c1cc(NCCc2cccc(F)c2)[nH]c(=O)[nH]1` the EC50 was 3.09 µM (GPR84; agonist).
The Kd of `Cc1ccc(C(=O)O)cc1S(=O)(=O)Nc1cccc(C(=O)CCC(=O)O)c1` is reported as 234 µM (BRAP ZnF-UBD domain).
`O=c1cc(-c2ccccc2)oc2cc(O)ccc12` has an EC50 of 0.185 µM (ESR2; array formation, agonist; GFP-ERβ PRL-HeLa; 1 h).
For `COc1cccc2c(NCc3ccccc3)nc(N3CCN(C)c4ccccc43)nc12`, the IC50 was 3.1 ± 0.5 µM (VCP; enzyme activity, inhibitor).
`O=C(/C=C/c1ccc(O)cc1)c1ccc(O)cc1O` has an EC50 of 0.309 µM (ESR2; array formation, agonist; GFP-ERβ PRL-HeLa; 1 h).
The EC50 of `O=c1cc(NCCCOc2ccccc2)[nH]c(=O)[nH]1` is reported as 0.0741 µM (GPR84; cAMP).
`O=C(O)CCC1=Nc2cccc3cccc(c23)N1` gave a Kd of > 1000 µM (BRAP ZnF-UBD domain).
With `CCCCCCCCCNc1cc(=O)[nH]c(=O)[nH]1` the EC50 was 0.0339 µM (GPR84; agonist).
`Cc1c(O)c(C)c2c(c1O)C(=O)C[C@@H](c1ccc(O)cc1)O2` has an EC50 of 6.9 µM (ESR2; array formation, agonist; GFP-ERβ PRL-HeLa; 1 h).
For `O=c1cc(N2CCN(c3ccc(Cl)cc3)CC2)[nH]c(=O)[nH]1`, the EC50 was 1.82 µM (GPR84; agonist).
With `COc1ccc(Nc2nc(Nc3cccc(Cl)c3)nc3ccccc23)cc1` the IC50 was 34 ± 14 µM (VCP; enzyme activity, inhibitor).

A few entries again:
The EC50 of `CCc1oc2c([C@H](CO)N(CC)CC)cccc2c1C` is reported as 0.041 µM (LPAR1 (Homo sapiens, UniProt Q92633, L297A); Gi protein dissociation, agonist, NanoBiT; HEK293T).
The Kd of `O=C(O)CCOc1ccccc1` is reported as > 1000 µM (BRAP ZnF-UBD domain).
For `O=c1cc(N2CCN(c3ccc(Cl)cc3)CC2)[nH]c(=O)[nH]1`, the EC50 was 1.82 µM (GPR84; agonist).
